Measured values collected from several papers.
Compare with care: the assays were run in different laboratories. ± marks the error that the study gave.

O=C(Nc1ccc(S(=O)(=O)Nc2nccs2)cc1)c1cc(-c2ccco2)nc2ccccc12  inhibition (GFP-ChREBP; nuclear localization, confocal microscopy; HepG2; 3 µM, with: glucose): ~75%
CCC/C(=C\C1=C(F)C(=O)c2ccccc2C1=O)C(=O)N(CC)CC  IC50 (NF-κB; reporter gene, inhibitor, luciferase reporter; concentration not given): 11.9 µM
N[C@@H]1CCN1Cc1ccc(Oc2cccc(F)c2)cc1  MAO-B inhibition ratio (MAO-B; reference: compound over safinamide): 10 fold
CC(C)CCC[C@@H](C)[C@H]1CCC([C@@H]2CC[C@H]3C[C@H](O)CC[C@]3(C)[C@H]2O)[C@]1(C)CC(=O)O (stereo partly shown)  FXR target gene mRNA level (FXR, mouse; C57BL/6J male mice, antibiotic-treated, ileum and liver; oral gavage, dose not given, with: taurocholic acid): decreased
CCCCC/C=C/C(=O)CCc1ccc(O)c(OC)c1  IC50 (mouse mAb 1-G12; antibody binding, indirect competitive ELISA; with: coating antigen 5-OVA): 0.107 µg/mL
N=C(N)SCc1ccccc1CSC(=N)N  protein level (IDO1 (human); western blot; A-431; concentration not given, with: IFN-gamma): no effect
Cc1c(-c2cccc(C3=NCCN3)c2)oc(-c2cccc(C3=NCCN3)c2)c1C  ΔTm (T-loop duplex DNA; duplex stabilisation, FRET melting; 1 µM): < 2 °C
NC1=N[N+](=Cc2c3ccccc3cc3ccccc23)[Ga-3]23([S]1)([S]C(N)=N[N+]2=Cc1c2ccccc2cc2ccccc12)[S]C(N)=N[N+]3=Cc1c2ccccc2cc2ccccc12  concentration for DNA cleavage (pBR322 plasmid DNA; agarose gel electrophoresis; 1 h, pH 8.2, 37 °C): ≥ 30 µM
CCCn1c(=O)c2[nH]c(-c3ccc(N(C)C(=O)c4ccc(C(F)(F)F)nc4)nc3)nc2n(CCC)c1=O  selectivity ratio (rat adenosine A2B receptor; radioligand displacement; HEK293 membranes; reference: A2B over other adenosine receptors): > 400 fold
C=CC(=O)N1[C@@H](c2ccc3c(c2)OCO3)c2[nH]c3ccccc3c2C[C@H]1C(=O)N1CCN(C)CC1  inhibition (human cyclin E1 N112C:CDK2 complex; kinase activity; concentration not given, biochemical, with: RB1 peptide or histone H1 substrate): no inhibition
CCN(CC)CC(=O)Nc1cccc(-n2cc(-c3ccc4ccc(-c5cn(-c6cccc(NC(=O)CN(CC)CC)c6)nn5)cc4c3)nn2)c1  HIF-2α protein level (HIF-2α; Western blot; nude mouse, tumour xenograft; ip, 15 mg/kg, within 6 h): decreased
C=C/C(=C/C(=O)C[C@H](C)C[C@@H](C)CC[C@H](O)[C@H](C)C(=O)/C=C/[C@H](C)[C@@H](C)O)CC  inhibition (PP1 (human); enzyme activity; MCF7; 20 µM, 4 h; reference: untreated): 9%
CCC/C(=C\C1=C(C(F)(F)F)C(=O)c2ccccc2C1=O)C(=O)N(CC)CC  EC50 (NF-κB; reporter gene, luciferase reporter; Pa03C; 24 h, basal activity): 8.2 ± 0.43 µM
CC(C)=CCN=C(N)NCCC[C@@H](NC(=O)CCCc1ccc(O)cc1)C(=O)N[C@@H](Cc1ccccc1)C(O)CC(=O)N[C@@H](Cc1ccc(O)cc1)C(=O)O (stereo in doubt)  inhibition (chymotrypsin; enzyme activity; up to 100 µM): no inhibition
COc1cc(/C=C/c2cc(C)n[nH]2)ccc1O  inhibition (glutathione S-transferase; enzyme activity; MCF7; 25 µM, 48 h): 65%
N=C(CF)NCCC[C@H](NC(=O)c1ccc(/N=N/c2ccccc2)cc1)c1nc2ccccc2[nH]1  inhibition (PAD2, human; histone H3 citrullination, western blot; HEK-293T expressing PAD2; 100 µM, 3 h): ~33%
Br.Br.Br.O=c1c(O)cccn1CCN1CCN(CCn2cccc(O)c2=O)CCN(CCn2cccc(O)c2=O)CC1  log Ka Fe complex deprotonation (iron(III); 25 °C): -3.1 ± 0.07
CNCC(=O)N[C@@H](CCCNC(=N)N)C(=O)N[C@H](C(=O)N[C@@H](Cc1ccc(O)cc1)C(=O)N[C@@H](CCSC)C(=O)N[C@@H](Cc1c[nH]cn1)C(=O)N1CCC[C@H]1C(=O)N[C@@H](CC(C)C)C(=O)O)C(C)C  EC50 (angiotensin II receptor type 1, human; aldosterone secretion, agonist, EIA; H295R, β-arrestin1 overexpressing): 0.095 ± 0.0125 µM
COc1ccc2nc3ccc(OC)cc3c(SCCCN)c2c1  proteasome activity (proteasome β1, β2, β5; MDA-MB-468; 10 µM, 2 h): decreased
CC[C@H](C)[C@H](NC(=O)[C@@H]1CCCN1C(=O)[C@H](CCCNC(=N)N)NC(=O)[C@@H]1CCCN1C(=O)[C@@H]1CCCN1C(=O)[C@@H](NC(=O)[C@@H]1CCCN1C(=O)[C@H](CCCNC(=N)N)NC(=O)[C@@H]1CCCN1C(=O)[C@H](CC(C)C)NC(=O)[C@H](Cc1ccc(O)cc1)NC(=O)[C@H](CO)NC(=O)CNC(=O)[C@H](CCCCN)NC(=O)[C@H](CC(=O)O)NC(=O)[C@@H](NC(=O)[C@H](CCCCN)NC(=O)c1ccc2c(c1)C(=O)OC21c2ccc(O)cc2Oc2cc(O)ccc21)C(C)C)[C@@H](C)O)C(=O)N[C@@H](Cc1ccc(O)cc1)C(=O)N[C@@H](CC(N)=O)C(=O)N[C@@H](CCCNC(=N)N)C(=O)N[C@@H](CC(N)=O)C(=O)NCC(=O)N1CCC[C@H]1C(=O)N[C@@H](CCCNC(=N)N)C(=O)N[C@@H](CCC(N)=O)C(=O)N[C@@H](CC1CCCCC1)C(=O)N[C@@H](CC(=O)O)C(=O)N[C@@H](CC(C)C)C(=O)N[C@@H](Cc1ccccc1)C(=O)O  Kd (70S ribosome Escherichia coli; ITC; pH 7.5, 30 °C): > 10 µM
COc1ccc(-c2cc(C(F)(F)F)nc(NCc3ccccc3)n2)cc1OC  efficacy (secretin receptor (endogenous); cAMP accumulation, allosteric modulator; NG108-15; 25 µM, with: secretin(3-27)): no effect
Nc1ncnc2c1ncn2[C@H]1C[C@H](O)[C@@H](COP(=O)(O)OP(=O)(O)[C@H](F)P(=O)(O)O)O1  delta effective pKa4 (truncated human DNA polymerase lambda; dNTP incorporation, single-turnover kinetics; B sequence, A·T pair; reference: non-enzymatic LFER line): -0.5 pK units
CC[C@H](C)[C@H](NC(=O)[C@@H]1CCCN1C(=O)[C@H](CCCNC(=N)N)NC(=O)[C@@H]1CCCN1C(=O)[C@@H]1CCCN1C(=O)[C@@H](NC(=O)[C@@H]1CCCN1C(=O)[C@H](CCCNC(=N)N)NC(=O)[C@@H]1CCCN1C(=O)[C@H](CC(C)C)NC(=O)[C@H](Cc1ccc(O)cc1)NC(=O)[C@H](CO)NC(=O)CNC(=O)[C@H](CCCCN)NC(=O)[C@H](CC(=O)O)NC(=O)[C@@H](NC(=O)[C@H](CCCCN)NC(=O)c1ccc2c(c1)C(=O)OC21c2ccc(O)cc2Oc2cc(O)ccc21)C(C)C)[C@@H](C)O)C(=O)N[C@@H](Cc1ccc(O)cc1)C(=O)N[C@@H](CC(N)=O)C(=O)N[C@@H](CCCNC(=N)N)C(=O)N[C@@H](CC(N)=O)C(=O)NCC(=O)N1CCC[C@H]1C(=O)N[C@@H](CCCNC(=N)N)C(=O)N[C@@H](CC1CCCCC1)C(=O)N[C@@H](Cc1ccccc1)C(=O)N[C@@H](CCC(N)=O)C(=O)N[C@@H](CC(C)C)C(=O)N[C@@H](CC(=O)O)C(=O)O  Kd (70S ribosome Escherichia coli; ITC; pH 7.5, 30 °C): > 10 µM
O=C(CCl)Sc1nnc(-c2n[nH]c(=O)c3ccccc23)o1  protein level reduction (topoisomerase II; ELISA; HepG2; IC50, 8 h; reference: untreated): 86%
COc1cc(CCC(C)=O)ccc1O  IC50 (mouse mAb 1-G12; antibody binding, indirect competitive ELISA; with: coating antigen 2-OVA): > 4 µg/mL

For quick reference, copied from above:
COc1ccc2nc3ccc(OC)cc3c(SCCCN)c2c1  proteasome activity (proteasome β1, β2, β5; MDA-MB-468; 10 µM, 2 h): decreased
CC[C@H](C)[C@H](NC(=O)[C@@H]1CCCN1C(=O)[C@H](CCCNC(=N)N)NC(=O)[C@@H]1CCCN1C(=O)[C@@H]1CCCN1C(=O)[C@@H](NC(=O)[C@@H]1CCCN1C(=O)[C@H](CCCNC(=N)N)NC(=O)[C@@H]1CCCN1C(=O)[C@H](CC(C)C)NC(=O)[C@H](Cc1ccc(O)cc1)NC(=O)[C@H](CO)NC(=O)CNC(=O)[C@H](CCCCN)NC(=O)[C@H](CC(=O)O)NC(=O)[C@@H](NC(=O)[C@H](CCCCN)NC(=O)c1ccc2c(c1)C(=O)OC21c2ccc(O)cc2Oc2cc(O)ccc21)C(C)C)[C@@H](C)O)C(=O)N[C@@H](Cc1ccc(O)cc1)C(=O)N[C@@H](CC(N)=O)C(=O)N[C@@H](CCCNC(=N)N)C(=O)N[C@@H](CC(N)=O)C(=O)NCC(=O)N1CCC[C@H]1C(=O)N[C@@H](CCCNC(=N)N)C(=O)N[C@@H](CCC(N)=O)C(=O)N[C@@H](CC1CCCCC1)C(=O)N[C@@H](CC(=O)O)C(=O)N[C@@H](CC(C)C)C(=O)N[C@@H](Cc1ccccc1)C(=O)O  Kd (70S ribosome Escherichia coli; ITC; pH 7.5, 30 °C): > 10 µM
COc1ccc(-c2cc(C(F)(F)F)nc(NCc3ccccc3)n2)cc1OC  efficacy (secretin receptor (endogenous); cAMP accumulation, allosteric modulator; NG108-15; 25 µM, with: secretin(3-27)): no effect
Nc1ncnc2c1ncn2[C@H]1C[C@H](O)[C@@H](COP(=O)(O)OP(=O)(O)[C@H](F)P(=O)(O)O)O1  delta effective pKa4 (truncated human DNA polymerase lambda; dNTP incorporation, single-turnover kinetics; B sequence, A·T pair; reference: non-enzymatic LFER line): -0.5 pK units
